Results from different studies.
Lines come from different studies, so protocols differ. Numbers after ± are the reported error.
ERBB2: Receptor tyrosine-protein kinase erbB-2 (ERBB2, Homo sapiens, UniProt P04626)
Chain of UniProt P16885 (whole entry, looked up): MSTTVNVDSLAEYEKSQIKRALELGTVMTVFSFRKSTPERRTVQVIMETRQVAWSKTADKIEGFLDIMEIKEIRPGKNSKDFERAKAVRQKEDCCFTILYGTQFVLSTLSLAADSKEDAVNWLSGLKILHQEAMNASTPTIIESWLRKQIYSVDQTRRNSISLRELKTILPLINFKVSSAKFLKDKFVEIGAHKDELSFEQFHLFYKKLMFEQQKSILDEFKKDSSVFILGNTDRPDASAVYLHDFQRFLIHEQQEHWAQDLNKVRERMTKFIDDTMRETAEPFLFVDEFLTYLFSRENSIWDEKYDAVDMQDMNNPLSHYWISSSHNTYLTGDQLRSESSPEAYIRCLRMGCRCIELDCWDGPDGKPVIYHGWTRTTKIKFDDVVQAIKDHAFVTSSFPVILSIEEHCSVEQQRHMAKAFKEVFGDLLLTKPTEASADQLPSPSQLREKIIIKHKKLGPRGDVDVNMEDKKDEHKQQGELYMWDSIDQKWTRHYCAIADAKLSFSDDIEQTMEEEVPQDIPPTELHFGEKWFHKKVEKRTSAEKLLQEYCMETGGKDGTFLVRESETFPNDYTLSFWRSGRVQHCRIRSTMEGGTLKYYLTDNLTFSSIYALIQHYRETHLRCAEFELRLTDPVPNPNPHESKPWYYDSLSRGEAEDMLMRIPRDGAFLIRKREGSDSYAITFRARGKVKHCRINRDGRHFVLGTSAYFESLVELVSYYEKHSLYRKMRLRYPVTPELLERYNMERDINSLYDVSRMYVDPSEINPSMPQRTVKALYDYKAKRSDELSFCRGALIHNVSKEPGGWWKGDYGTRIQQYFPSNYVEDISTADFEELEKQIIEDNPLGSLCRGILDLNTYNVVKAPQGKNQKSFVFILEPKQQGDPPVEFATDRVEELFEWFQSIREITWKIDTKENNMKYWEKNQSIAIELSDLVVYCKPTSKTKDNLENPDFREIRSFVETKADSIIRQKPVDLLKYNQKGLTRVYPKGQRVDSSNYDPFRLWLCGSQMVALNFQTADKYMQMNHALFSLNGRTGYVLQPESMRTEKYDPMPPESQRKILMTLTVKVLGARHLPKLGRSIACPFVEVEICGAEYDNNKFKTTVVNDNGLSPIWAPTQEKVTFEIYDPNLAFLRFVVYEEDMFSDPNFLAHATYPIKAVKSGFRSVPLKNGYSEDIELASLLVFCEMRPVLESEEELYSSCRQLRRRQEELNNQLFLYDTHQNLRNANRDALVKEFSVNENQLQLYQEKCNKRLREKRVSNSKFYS
Chain of UniProt Q8N8S7 (whole entry, looked up): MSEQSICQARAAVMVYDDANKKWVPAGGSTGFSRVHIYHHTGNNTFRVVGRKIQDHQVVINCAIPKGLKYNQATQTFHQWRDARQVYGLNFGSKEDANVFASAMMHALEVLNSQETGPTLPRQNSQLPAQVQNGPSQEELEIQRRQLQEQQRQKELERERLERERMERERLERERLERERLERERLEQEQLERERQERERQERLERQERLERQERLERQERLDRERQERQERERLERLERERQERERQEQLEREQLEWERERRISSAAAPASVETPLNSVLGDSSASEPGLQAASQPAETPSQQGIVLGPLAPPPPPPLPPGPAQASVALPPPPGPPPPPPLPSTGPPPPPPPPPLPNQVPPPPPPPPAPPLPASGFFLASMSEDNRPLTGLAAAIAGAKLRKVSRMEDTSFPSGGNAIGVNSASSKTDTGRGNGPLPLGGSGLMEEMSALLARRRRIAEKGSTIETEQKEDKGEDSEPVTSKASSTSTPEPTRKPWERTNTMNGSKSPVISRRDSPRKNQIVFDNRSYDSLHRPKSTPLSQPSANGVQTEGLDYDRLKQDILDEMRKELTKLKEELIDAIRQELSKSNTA
Chain of UniProt P42336 (whole entry, looked up): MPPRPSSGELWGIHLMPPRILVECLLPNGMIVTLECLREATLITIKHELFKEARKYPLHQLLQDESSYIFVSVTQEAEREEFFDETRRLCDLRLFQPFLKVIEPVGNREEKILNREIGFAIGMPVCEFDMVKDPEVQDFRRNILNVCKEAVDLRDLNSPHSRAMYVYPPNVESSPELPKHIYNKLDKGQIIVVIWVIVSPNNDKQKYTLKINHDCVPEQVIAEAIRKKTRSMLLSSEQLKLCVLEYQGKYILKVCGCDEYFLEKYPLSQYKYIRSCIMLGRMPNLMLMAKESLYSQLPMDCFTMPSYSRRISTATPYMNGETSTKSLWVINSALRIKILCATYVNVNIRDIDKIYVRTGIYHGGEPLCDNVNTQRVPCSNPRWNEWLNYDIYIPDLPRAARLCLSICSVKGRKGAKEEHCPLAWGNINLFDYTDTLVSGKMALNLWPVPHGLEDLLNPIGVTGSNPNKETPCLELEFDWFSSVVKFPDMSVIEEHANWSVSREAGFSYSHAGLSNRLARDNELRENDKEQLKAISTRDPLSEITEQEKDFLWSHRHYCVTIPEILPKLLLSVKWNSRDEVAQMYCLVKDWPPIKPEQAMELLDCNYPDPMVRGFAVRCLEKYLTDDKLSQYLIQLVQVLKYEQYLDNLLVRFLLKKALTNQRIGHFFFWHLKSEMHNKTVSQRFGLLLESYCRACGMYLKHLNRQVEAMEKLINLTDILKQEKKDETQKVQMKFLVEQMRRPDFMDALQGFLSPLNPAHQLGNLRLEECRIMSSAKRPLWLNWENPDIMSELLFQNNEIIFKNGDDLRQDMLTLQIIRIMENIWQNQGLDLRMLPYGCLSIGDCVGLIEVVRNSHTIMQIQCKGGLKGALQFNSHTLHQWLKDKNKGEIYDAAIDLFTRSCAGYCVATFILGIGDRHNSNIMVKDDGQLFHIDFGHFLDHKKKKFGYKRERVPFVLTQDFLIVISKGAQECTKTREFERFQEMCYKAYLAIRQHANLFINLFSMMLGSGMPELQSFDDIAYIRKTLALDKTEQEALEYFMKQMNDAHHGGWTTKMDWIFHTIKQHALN
Chain of UniProt P51817 (whole entry, looked up): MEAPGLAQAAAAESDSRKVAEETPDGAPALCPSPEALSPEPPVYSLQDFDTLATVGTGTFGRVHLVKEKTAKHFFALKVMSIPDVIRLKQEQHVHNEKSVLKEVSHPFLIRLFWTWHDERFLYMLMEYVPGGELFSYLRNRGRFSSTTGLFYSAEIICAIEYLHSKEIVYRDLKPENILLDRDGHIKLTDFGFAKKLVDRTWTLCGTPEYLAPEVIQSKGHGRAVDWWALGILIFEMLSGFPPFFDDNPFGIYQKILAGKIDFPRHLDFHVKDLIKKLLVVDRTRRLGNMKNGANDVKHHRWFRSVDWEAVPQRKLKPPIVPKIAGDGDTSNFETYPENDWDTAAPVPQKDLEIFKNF
Chain of UniProt P00811 (whole entry, looked up): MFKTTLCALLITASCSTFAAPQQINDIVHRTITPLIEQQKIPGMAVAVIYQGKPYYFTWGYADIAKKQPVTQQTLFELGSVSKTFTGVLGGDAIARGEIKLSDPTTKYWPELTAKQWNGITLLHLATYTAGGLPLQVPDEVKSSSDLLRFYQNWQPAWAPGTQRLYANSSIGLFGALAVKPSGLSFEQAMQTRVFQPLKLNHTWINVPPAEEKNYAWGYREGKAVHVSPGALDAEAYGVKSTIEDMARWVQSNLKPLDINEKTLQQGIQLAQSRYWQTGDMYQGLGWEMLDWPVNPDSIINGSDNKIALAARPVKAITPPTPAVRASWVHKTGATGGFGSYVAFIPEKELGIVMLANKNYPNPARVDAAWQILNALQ
Chain of UniProt P21554 (whole entry, looked up): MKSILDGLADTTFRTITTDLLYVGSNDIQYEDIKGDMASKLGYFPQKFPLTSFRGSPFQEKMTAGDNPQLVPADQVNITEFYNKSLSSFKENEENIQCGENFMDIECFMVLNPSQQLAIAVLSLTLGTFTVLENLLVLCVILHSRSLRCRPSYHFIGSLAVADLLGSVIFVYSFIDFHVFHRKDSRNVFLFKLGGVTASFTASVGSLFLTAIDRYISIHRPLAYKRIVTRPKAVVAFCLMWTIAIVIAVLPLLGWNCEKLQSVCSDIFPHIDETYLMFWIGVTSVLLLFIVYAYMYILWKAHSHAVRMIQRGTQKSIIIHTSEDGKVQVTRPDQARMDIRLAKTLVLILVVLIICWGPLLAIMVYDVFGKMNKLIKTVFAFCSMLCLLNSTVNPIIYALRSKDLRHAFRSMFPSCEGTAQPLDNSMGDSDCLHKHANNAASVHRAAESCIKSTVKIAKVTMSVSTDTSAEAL
Chain of UniProt P33913 (whole entry, unmodified, looked up): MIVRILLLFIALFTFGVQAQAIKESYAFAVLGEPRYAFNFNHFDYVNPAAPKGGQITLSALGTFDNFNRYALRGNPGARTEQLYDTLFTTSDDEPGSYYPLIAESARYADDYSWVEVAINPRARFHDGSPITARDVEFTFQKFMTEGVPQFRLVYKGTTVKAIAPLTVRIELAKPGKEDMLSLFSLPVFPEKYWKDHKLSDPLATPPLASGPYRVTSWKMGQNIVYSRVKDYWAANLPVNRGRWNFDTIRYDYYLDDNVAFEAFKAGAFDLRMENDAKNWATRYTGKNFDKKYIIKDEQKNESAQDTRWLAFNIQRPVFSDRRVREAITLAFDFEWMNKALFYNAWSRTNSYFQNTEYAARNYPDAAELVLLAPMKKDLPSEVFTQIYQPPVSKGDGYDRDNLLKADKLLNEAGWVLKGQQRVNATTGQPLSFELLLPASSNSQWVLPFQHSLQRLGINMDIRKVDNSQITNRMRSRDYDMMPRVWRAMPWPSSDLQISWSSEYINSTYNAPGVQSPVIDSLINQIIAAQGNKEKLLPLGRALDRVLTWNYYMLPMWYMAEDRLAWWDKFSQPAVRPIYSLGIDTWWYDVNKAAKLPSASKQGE

Compound | tested on | assay | system | setting | how to read | endpoint | result
Cc1cc(C(=O)Nc2nc3cccc(C)c3n2[C@H]2CCCCN(C(=O)/C=C/CN(C)C)C2)ccn1 | Trypanosoma brucei | propidium iodide flow cytometry | bloodstream form | concentration not given, 72 h | – | cells in S phase | 15.8%
CSCC[C@@H](N)C(=O)N[C@H](C)C(=O)N[C@H](C)C(=O)N[C@@H](C(=O)N[C@H](C)C(=O)NCC(=O)N[C@H](CC(C)C)C(=O)N[C@H](Cc1ccc(O)cc1)C(=O)NCC(=O)N[C@H](CC(C)C)C(=O)NCC(=O)N[C@H](CCC(=O)O)C(=O)N[C@H](CC(=O)O)C(=O)N[C@H](CCCNC(=N)N)C(=O)N[C@H](CCC(N)=O)C(=O)N[C@H](Cc1c[nH]cn1)C(=O)N[C@H](CCCNC(=N)N)C(=O)N[C@H](CCCCN)C(=O)N[C@H](CCCCN)C(=O)N[C@H](CCC(N)=O)C(N)=O)C(C)C | Sh, DEL6-46 (Drosophila melanogaster, UniProt P08510) | ion current, blocker, inside-out patch clamp | – | +30 mV | – | Kd | 7.1 µM
CSCC[C@H](NC=O)C(=O)N[C@@H](CCCNC(=N)N)C(=O)N[C@H](C(=O)NCC(=O)N[C@@H](CC(N)=O)C(=O)N[C@@H](C)C(=O)N[C@@H](CC(N)=O)C(=O)NCC(=O)NCC(=O)N[C@@H](CCCCNC(=S)Nc1ccc2c(c1)C(=O)OC21c2ccc(O)cc2Oc2cc(O)ccc21)C(=O)O)[C@@H](C)O | Uncharacterized protein YejA (yejA, Escherichia coli, UniProt P33913, Q150A) | binding, fluorescence polarisation | – | YejA variant Q132A | – | Kd | 30.3 ± 2.14 µM
COc1ccccc1-c1n[nH]c2nc(NC3CCN(C(=O)Cc4ccc(F)cc4F)CC3)ncc12 | – | bead binding, competition bead pull-down, item: LINJ.24.1910 | Leishmania donovani axenic amastigote extract | 10 µM | relative to: vehicle | relative abundance | 0.98
O=C(O)CN(c1ccccc1)S(=O)(=O)c1ccccc1 | Beta-lactamase (ampC, Escherichia coli K-12, UniProt P00811) | – | – | – | – | Kd | 5200 µM
CSCC[C@@H]1NC(=O)[C@H]([C@@H](C)O)NC(=O)[C@H](CC(C)C)NC(=O)[C@H](Cc2c[nH]c3ccccc23)NC(=O)CNC(=O)[C@H](C)NC(=O)[C@H](CO)NC(=O)[C@@H](NC(=O)[C@H](CCCCN)NC(=O)[C@H](CC(=O)O)NC(=O)[C@H](CO)NC(C)=O)CSCCC(=O)N2CN3CN(C2)C(=O)CCSC[C@@H](C(=O)N2CCC[C@H]2C(=O)N[C@@H](CO)C(=O)N[C@@H](Cc2c[nH]cn2)C(N)=O)NC(=O)[C@H](CC(C)C)NC(=O)[C@H](CC(N)=O)NC(=O)[C@H](CC(C)C)NC(=O)[C@H](CCC(N)=O)NC(=O)[C@H](CCCCN)NC(=O)[C@H](CSCCC3=O)NC1=O | Programmed cell death 1 ligand 1 (CD274, Homo sapiens, UniProt Q9NZQ7) | binding, SPR | – | – | – | Kd | 0.00429 µM
CC[C@H](C)[C@H](NC(=O)[C@H](CC(=O)O)NC(=O)[C@H](CCCNC(=N)N)NC(=O)[C@@H](NC(=O)c1ccc2c(c1)C(=O)OC21c2ccc(N(C)C)cc2Oc2cc(N(C)C)ccc21)[C@@H](C)O)C(=O)N[C@@H](Cc1ccc(O)cc1)C(=O)N[C@@H](CCC(=O)O)C(=O)N[C@H](C(=O)N[C@@H](CC(=O)O)C(=O)N[C@@H](Cc1ccc(O)cc1)C(=O)N[C@@H](Cc1ccc(OP(=O)(O)O)cc1)C(=O)N[C@@H](CCCNC(=N)N)C(=O)N[C@@H](CCCCN)C(=O)NCC(=O)NCC(=O)N[C@@H](CCCCN)C(=O)NCC(=O)N[C@@H](CC(C)C)C(=O)N[C@@H](CC(=O)O)C(=O)O)[C@@H](C)O | 1-phosphatidylinositol 4,5-bisphosphate phosphodiesterase gamma-2, SH2 domain (PLCG2, Homo sapiens, UniProt P16885) | binding | – | – | – | Kd | 1.6 µM
C=C[C@H]1CN(Cc2ccccn2)C(=O)[C@@H]2CCC[C@H]1N2Sc1cc(Cl)cc(Cl)c1 | uncharacterized protein, residues 23-253 (Pseudomonas aeruginosa, UniProt Q9HYX8) | binding, competitive fluorescence polarization | – | 30 min, protein 40 nM, with: fluorescent tracer 1 nM | – | Kd | 7.37 ± 0.89 µM
CC(=O)N[C@@H](CO)C(=O)N[C@@H](Cc1ccccc1)C(=O)N[C@@H](CCC(=O)O)C(=O)N[C@@H](Cc1ccccc1Cl)C(=O)N1CCC[C@]12C=C[C@@H]1CC[C@@H](C(=O)N3CC[C@@H]4C=C[C@H]5CC[C@@H](C(=O)N[C@H](C(=O)N[C@@H](CCC(=O)O)C(=O)N[C@@H](CC(=O)O)C(=O)N[C@@H](CCC(=O)O)C(=O)N[C@@H](CC(C)C)C(N)=O)[C@@H](C)O)N5C(=O)[C@H]43)N1C2=O | Protein enabled homolog (ENAH, UniProt Q8N8S7) | binding, ITC | – | – | – | Kd | 0.34 µM
Cc1ccc2c(C(C[N+](=O)[O-])c3cccs3)c(-c3ccccc3)[nH]c2c1 (stereo not drawn) | Cannabinoid receptor 1 (CNR1, Homo sapiens, UniProt P21554) | β-arrestin recruitment, agonist, luciferase | – | – | – | EC50 | 0.19 µM
CC[C@H](C)[C@H](NC(=O)[C@H](CNC(=O)COCCNC(=O)CN(CCNC(=O)CN(CCNC(=O)CN(CCNC(=O)CN(CCNC(=O)[C@H](CCCNC(=N)N)NC(C)=O)C(=O)Cn1ccc(N)nc1=O)C(=O)Cn1cnc2c(=O)[nH]c(N)nc21)C(=O)Cn1cnc2c(=O)[nH]c(N)nc21)C(=O)Cn1ccc(N)nc1=O)NC(=O)[C@H](C)NC(=O)[C@H](CCCNC(=N)N)NC(=O)[C@H](CCCCN)NC(=O)[C@H](CCC(N)=O)NC(=O)[C@H](CCC(N)=O)NC(=O)[C@H](CC(N)=O)NC(=O)[C@@H](NC(=O)[C@H](CC(C)C)NC(=O)[C@H](CC(N)=O)NC(=O)[C@@H]1CCCN1C(=O)[C@H](CC(=O)O)NC(=O)[C@H](CC(C)C)NC(=O)[C@H](C)NC(=O)[C@H](CS)NC(=O)[C@H](CCCC(=O)NCC(=O)NCCN(CC(=O)NCCN(CC(=O)NCCN(CC(=O)NCCN(CC(=O)N[C@@H](CCCNC(=N)N)C(N)=O)C(=O)Cn1cnc2c(=O)[nH]c(N)nc21)C(=O)Cn1ccc(N)nc1=O)C(=O)Cn1ccc(N)nc1=O)C(=O)Cn1cnc2c(=O)[nH]c(N)nc21)NC(=O)[C@H](Cc1c[nH]c2ccccc12)NC(=O)[C@H](Cc1ccc(O)cc1)NC(=O)[C@H](CCCNC(=N)N)NC(=O)[C@H](CC(N)=O)NC(=O)[C@H](CCCNC(=N)N)NC(=O)[C@H](CCSC)NC(=O)[C@H](CCC(=O)O)NC(=O)[C@H](CCCCN)NC(=O)[C@H](CO)NC(=O)[C@H](Cc1ccccc1)NC(C)=O)[C@@H](C)O)C(=O)N[C@@H](CCCNC(=N)N)C(=O)N[C@@H](CO)C(=O)N[C@H](C(=O)N[C@@H](Cc1ccc(O)cc1)C(=O)N[C@@H](CCC(=O)O)C(=O)N[C@@H](CCC(=O)O)C(=O)NCC(=O)N[C@@H](CCC(=O)O)C(N)=O)[C@@H](C)CC | ERBB2 | binding, SPR | – | – | – | Kd | 0.047 µM
O=C1NC2(CC2)COc2ncc(F)cc2[C@H]2COCCN2c2ccn3ncc1c3n2 | – | – | Sprague-Dawley rat, female, blood | oral, 10 mg/kg/day, end of treatment, 4-week repeated-dose toxicity | relative to: red blood cells | reticulocytes | 2.19 ± 0.57%
CS(C)(=O)=Nc1ccc(-c2ccc(-c3nc4cc(O[C@@H]5CO[C@H]6[C@@H]5OC[C@H]6O)[nH]c4cc3F)cc2)cc1 | Phosphatidylinositol 4,5-bisphosphate 3-kinase catalytic subunit alpha isoform, with p85 alpha (PIK3CA, Homo sapiens, UniProt P42336) | kinase activity | – | 10 µM | – | inhibition | -2%
CC[C@H](C)[C@H](NC(=O)[C@H](CCCCN)NC(=O)[C@H](C)NC(=O)[C@H](CCCNC(=N)N)NC(=O)[C@H](CCCCN)NC(=O)[C@H](CCC(N)=O)NC(=O)[C@H](CCC(N)=O)NC(=O)[C@H](CC(N)=O)NC(=O)[C@@H](NC(=O)[C@H](CC(C)C)NC(=O)[C@H](CC(N)=O)NC(=O)[C@@H]1CCCN1C(=O)[C@H](CC(=O)O)NC(=O)[C@H](CC(C)C)NC(=O)[C@H](CS)NC(=O)[C@H](C)NC(=O)[C@H](CCC(=O)O)NC(=O)[C@H](Cc1c[nH]c2ccccc12)NC(=O)[C@H](Cc1ccc(O)cc1)NC(=O)[C@H](CCCNC(=N)N)NC(=O)[C@H](CC(N)=O)NC(=O)[C@H](CCCNC(=N)N)NC(=O)[C@H](CCSC)NC(=O)[C@H](CCC(=O)O)NC(=O)[C@H](CCCCN)NC(=O)[C@H](CO)NC(=O)[C@H](Cc1ccccc1)NC(C)=O)[C@@H](C)O)C(=O)N[C@@H](CCCNC(=N)N)C(=O)N[C@@H](CO)C(=O)N[C@H](C(=O)N[C@@H](Cc1ccc(O)cc1)C(=O)N[C@@H](CCC(=O)O)C(=O)N[C@@H](CCC(=O)O)C(=O)NCC(=O)N[C@@H](CCC(=O)O)C(N)=O)[C@@H](C)CC | ERBB2 | binding, SPR | – | – | – | Kd | 0.096 µM
O=C(N[C@@H]1c2ccccc2C[C@H]1N1CCCC1)c1ccc(-c2ccnc3[nH]ccc23)nc1 | cAMP-dependent protein kinase catalytic subunit PRKX (PRKX, Homo sapiens, UniProt P51817) | binding, competition with immobilised ligand | – | – | – | Kd | 0.061 µM

Repeated from above:
Compound | tested on | assay | system | setting | how to read | endpoint | result
CC[C@H](C)[C@H](NC(=O)[C@H](CNC(=O)COCCNC(=O)CN(CCNC(=O)CN(CCNC(=O)CN(CCNC(=O)CN(CCNC(=O)[C@H](CCCNC(=N)N)NC(C)=O)C(=O)Cn1ccc(N)nc1=O)C(=O)Cn1cnc2c(=O)[nH]c(N)nc21)C(=O)Cn1cnc2c(=O)[nH]c(N)nc21)C(=O)Cn1ccc(N)nc1=O)NC(=O)[C@H](C)NC(=O)[C@H](CCCNC(=N)N)NC(=O)[C@H](CCCCN)NC(=O)[C@H](CCC(N)=O)NC(=O)[C@H](CCC(N)=O)NC(=O)[C@H](CC(N)=O)NC(=O)[C@@H](NC(=O)[C@H](CC(C)C)NC(=O)[C@H](CC(N)=O)NC(=O)[C@@H]1CCCN1C(=O)[C@H](CC(=O)O)NC(=O)[C@H](CC(C)C)NC(=O)[C@H](C)NC(=O)[C@H](CS)NC(=O)[C@H](CCCC(=O)NCC(=O)NCCN(CC(=O)NCCN(CC(=O)NCCN(CC(=O)NCCN(CC(=O)N[C@@H](CCCNC(=N)N)C(N)=O)C(=O)Cn1cnc2c(=O)[nH]c(N)nc21)C(=O)Cn1ccc(N)nc1=O)C(=O)Cn1ccc(N)nc1=O)C(=O)Cn1cnc2c(=O)[nH]c(N)nc21)NC(=O)[C@H](Cc1c[nH]c2ccccc12)NC(=O)[C@H](Cc1ccc(O)cc1)NC(=O)[C@H](CCCNC(=N)N)NC(=O)[C@H](CC(N)=O)NC(=O)[C@H](CCCNC(=N)N)NC(=O)[C@H](CCSC)NC(=O)[C@H](CCC(=O)O)NC(=O)[C@H](CCCCN)NC(=O)[C@H](CO)NC(=O)[C@H](Cc1ccccc1)NC(C)=O)[C@@H](C)O)C(=O)N[C@@H](CCCNC(=N)N)C(=O)N[C@@H](CO)C(=O)N[C@H](C(=O)N[C@@H](Cc1ccc(O)cc1)C(=O)N[C@@H](CCC(=O)O)C(=O)N[C@@H](CCC(=O)O)C(=O)NCC(=O)N[C@@H](CCC(=O)O)C(N)=O)[C@@H](C)CC | ERBB2 | binding, SPR | – | – | – | Kd | 0.047 µM
O=C1NC2(CC2)COc2ncc(F)cc2[C@H]2COCCN2c2ccn3ncc1c3n2 | – | – | Sprague-Dawley rat, female, blood | oral, 10 mg/kg/day, end of treatment, 4-week repeated-dose toxicity | relative to: red blood cells | reticulocytes | 2.19 ± 0.57%
